# Published values from different studies.
# A part holds a random share of what one study measured. Substitutions count along the parent as printed.

# Series 1 — target: JUNB, bZIP domain (human); technique: DHFR protein complementation; medium: yeast; relative to: wild-type JUN-FOS pair; reading: higher = stronger binding
# Notes: single substitutions, most at no-binding floor
# Starting sequence: JUN, bZIP domain (human); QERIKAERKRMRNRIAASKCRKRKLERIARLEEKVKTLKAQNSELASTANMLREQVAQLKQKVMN; partner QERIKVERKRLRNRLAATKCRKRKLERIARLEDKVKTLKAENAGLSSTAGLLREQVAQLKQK
Change,binding fitness [natural log]
R53P,-1.56
S43D,-1.1
T37Y,-1.11
L38R,-1.49
L38S,-1.53
V56G,-1.48

# Series 2 — target: CCNA1, cyclin fold, Cln2 fusion (human); technique: yeast growth competition, sequencing; medium: yeast; notes: weak parent motif; relative to: not given; reading: higher = stronger binding
# Starting sequence: ORC1 docking peptide (human); PRARKRLELGNLG
Change,normalised enrichment score
G10T,0.231
N11Q,0.0386
G13D,0.837
N11L,0.377
G10V,0.158
R2C,0.165

# Series 3 — technique: RNA Bind-n-Seq; form: RNA; medium: in vitro; tested at: 1 µM; notes: whole 134-nt RNA, ends assumed; together with: 150 mM KCl; relative to: input library; reading: higher = stronger binding
# Target: Ras GTPase-activating protein-binding protein 1, C-terminal RGG region (G3BP1, Homo sapiens, UniProt Q13283)
# Sequence of UniProt Q13283 (whole entry, looked up): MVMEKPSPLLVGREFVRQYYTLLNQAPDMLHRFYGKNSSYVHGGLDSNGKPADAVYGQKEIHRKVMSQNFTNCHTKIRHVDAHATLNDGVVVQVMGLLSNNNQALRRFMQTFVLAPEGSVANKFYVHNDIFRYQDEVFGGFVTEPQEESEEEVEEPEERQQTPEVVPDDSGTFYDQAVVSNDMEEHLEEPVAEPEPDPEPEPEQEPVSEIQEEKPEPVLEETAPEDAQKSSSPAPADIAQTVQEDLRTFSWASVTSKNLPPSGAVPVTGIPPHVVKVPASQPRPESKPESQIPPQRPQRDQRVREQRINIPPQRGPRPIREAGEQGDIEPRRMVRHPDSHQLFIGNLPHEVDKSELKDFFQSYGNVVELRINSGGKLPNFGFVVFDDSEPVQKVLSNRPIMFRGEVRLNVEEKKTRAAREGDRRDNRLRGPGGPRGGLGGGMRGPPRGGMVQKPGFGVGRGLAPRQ
Oligonucleotide,log2 enrichment
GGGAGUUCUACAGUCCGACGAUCCCCAUCAUGUUCAGAGGUGAGGUCCGUCUGAAUGUCGAAGAGAAGAAGACUCGAGCUGCCAGGGAAGGCGACCGACGAGAUAAUCGCCUUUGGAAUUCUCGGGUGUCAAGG,-2.17
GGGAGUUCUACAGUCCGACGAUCAGUCCUGUGCUACACAUCGUAUGUACCGAAUCGGGGAAAAAGGGAAAAAGGAAAAAGGAAAGUAUUAUGUUACGCCGUUCGGAUCUGCACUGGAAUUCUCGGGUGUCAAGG,-1.87
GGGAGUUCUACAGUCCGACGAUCCCUCAAGUCCUGUGCUACACAUCGUAUGUACCGAAUCGGGCGGGGCGGGCGGGAAAGUAUUAUGUUACGCCGUUCGGAUCUGCACUUCCAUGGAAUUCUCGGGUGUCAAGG,2.32
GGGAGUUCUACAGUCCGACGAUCCCUGUGCUACACAUCGUAUGUACCGAAUCGGCCCCCCCGGCCCCCCCGGGCCCCCCCGGGGAAAGUAUUAUGUUACGCCGUUCGGAUCUGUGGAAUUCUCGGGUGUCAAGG,-1.75
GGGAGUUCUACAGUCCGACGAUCUUUCUGCAGCAUUAGAGAAGGCCCAAGAAGAAGCCCGUCAGCAGCAAGAAACAUUAGCCAUUCAAGUAAGCAAUGGAUGAUGAAUUAGAGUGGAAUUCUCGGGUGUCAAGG,-2.06
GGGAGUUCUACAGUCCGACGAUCUCCUGUGCUACACAUCGUAUGUACCGAAUCGGGUUUUUGGGUUUUUUUGGGUUUUUGGGAAAGUAUUAUGUUACGCCGUUCGGAUCUGCAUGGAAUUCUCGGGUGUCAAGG,-0.277

# Mixed results
Molecule,target,assay,test system,conditions,scale,quantity,result
"PhoQ, residues 284 288 289 292 302 303 HSYLQF","PhoP, residues 12 14 15 18 19 LYHSL (Escherichia coli, UniProt P23836)","Sort-seq, measured: YFP reporter",E. coli,"PhoQ-PhoP variant library, together with: 10 µM Mg2+","relative to: high Mg2+ state, higher = stronger signaling",fold induction,10.9

# Repeated from above (series 1):
Change,binding fitness [natural log]
T37Y,-1.11
L38R,-1.49
L38S,-1.53
